# Published values of several laboratories.
# Each line is one published result; not all experiments were run side by side.
Compound,test,test system,conditions,quantity,value
C=CCn1c(=O)c2cnc(Nc3ccc(N4CCN(C)CC4)cc3)nc2n1-c1ccc2c(n1)[C@@](O)(CC)CC2,,"mouse, plasma",,fraction unbound,0.161
O=C1CC[C@H](N2Cc3cc(N4CCN(CC5CCN(c6ccc([C@@H]7c8ccc(O)cc8CC[C@@H]7c7ccccc7)cc6)CC5)CC4)ccc3C2=O)C(=O)N1,,"Sprague-Dawley rat, plasma","intravenous, 5 mg/kg",clearance,11.7 mL/min/kg
COc1cc2c3c(n(CCCN4CCOCC4)c(=O)c2cc1OC)-c1cc2c(cc1C3=O)OCO2,,"male beagle dog, plasma","intravenous, 10 mg/m², infusion",half-life,354 min
O=C(c1ccc(F)cc1)C1CCN(CCn2c(=O)[nH]c3ccccc3c2=O)CC1,metabolic stability,"monkey, liver microsomes",1 h,compound remaining,21.2%
CCn1cc(C2CC2)c2c(Cc3cnc(C(F)(F)F)c(C)c3)n(C)nc2c1=O,nephelometry,aqueous buffer,"30 min, pH 6.5",kinetic solubility,50 to 100 µM
Cc1ncsc1-c1ccc([C@H](C)NC(=O)[C@@H]2C[C@@H](O)CN2C(=O)[C@@H](NC(=O)CCCCn2cc(CCCC(=O)NCCCn3cc(-c4ccc5c(c4)CCN5C(=O)Cc4cccc(OC(F)(F)F)c4)c4c(N)ncnc43)nn2)C(C)(C)C)cc1,metabolic stability,"mouse, liver S9",1 µM,half-life,27.3 min
C(=N\Nc1ccccc1)/c1ccc(-c2ccc(/C=N/Nc3ccccc3)cc2)cc1,haemolysis,mouse,"62.5 µg/mL, 1 h",haemolysis,< 20%
NC(=S)NN=Cc1ncccc1N,,"human, plasma","oral, 100 mg",bioavailability,~66%
CCn1cc(C)c2c([C@H](O)c3cnc(C(F)(F)F)c(Cl)c3)n(C)nc2c1=O,nephelometry,aqueous buffer,"30 min, pH 6.5",kinetic solubility,160 to 320 µM
Cc1ncsc1-c1ccc([C@H](C)NC(=O)[C@@H]2C[C@@H](O)CN2C(=O)[C@@H](NC(=O)CCCCCCCCCCC(=O)NCCCn2cc(-c3ccc4c(c3)CCN4C(=O)Cc3cccc(OC(F)(F)F)c3)c3c(N)ncnc32)C(C)(C)C)cc1,metabolic stability,"human, liver microsomes",,half-life,10 min
OCc1nc2ccc(NCc3ccc(C(F)(F)F)cc3)cc2[nH]1,,"male BALB/c mouse, plasma","oral, 10 mg/kg",Vd/F,19.1 L/kg
Cc1nc(-c2cnc(NC(C)C)n(C)c2=O)ccc1Oc1ccnc(-c2cnn(C)c2)c1,,"female mouse, plasma","oral, 30 mg/kg, single dose",Tmax,6 h
CCn1cc(C2CC2)c2c(Cc3ccc(C(F)(F)F)c(C#N)c3)n(C)nc2c1=O,nephelometry,aqueous buffer,"30 min, pH 6.5",kinetic solubility,15 to 30 µM
COc1ccc2c(=O)n(C)c(-c3ccccc3)nc2c1,,"male Sprague-Dawley rat, spleen","oral, 30 mg/kg, 30 min, single dose",concentration,133 ng/g
Cn1nc2c(=O)n(C3CC3)ncc2c1[C@](O)(c1cnc(C(F)(F)F)c(Cl)c1)C1CC1,nephelometry,aqueous buffer,"30 min, pH 6.5",kinetic solubility,20 to 40 µM
NCc1cc2c(cc1F)C(=O)N(C1CCC(=O)NC1=O)C2 (stereo not shown),,"male cynomolgus monkey, plasma","oral, 0.3 mg/kg",Cmax,1.57 ng/mL
Cn1nc2c(=O)n(C3CC3)ncc2c1[C@](O)(c1cnc(C(F)(F)F)c(Cl)c1)C(F)(F)F,nephelometry,aqueous buffer,"30 min, pH 6.5",kinetic solubility,20 to 40 µM
Cc1cc(NC(=O)c2cccc(NC(=O)/C=C/CN(C)C)c2)ccc1Nc1nccc(-c2cccnc2)n1,metabolic stability,"male Wistar rat, hepatocytes",1 µM,half-life,119 min
COc1ccc([C@@H](O)c2cc(-c3ncnc4cc(N5CCOCC5)ccc34)c(F)cc2Cl)nn1,,"human, plasma","oral, 150 mg, multiple doses, once daily, patients",Tmax,2.18 h
O=C(COc1ccc(Cl)cc1)NC12CC(c3nnc([C@H]4C[C@@H](OC(F)(F)F)C4)o3)(C1)C2,,"human, plasma","oral, 200 mg, single dose, fasted, healthy volunteers",Tmax,12 h
Cn1nc2c(=O)n(C3CC3)ccc2c1[C@](O)(c1ccc(C(F)(F)F)nc1)C1CC1,nephelometry,aqueous buffer,"30 min, pH 6.5",kinetic solubility,20 to 40 µM
Fc1ccc(N/N=C/c2ccc(-c3cccc(/C=N/Nc4ccc(F)cc4F)c3)cc2)c(F)c1,haemolysis,mouse,"62.5 µg/mL, 1 h",haemolysis,< 25%
Cc1noc(C)c1Cn1cc(N2C(=O)CN(Cc3cccc(O)c3)C2=O)cn1,,"male Sprague-Dawley rat, plasma","oral, 30 mg/kg, 1 h",concentration,28.9 ng/mL
NCc1ccc(-c2nn(Cc3ccccc3)c3ccccc23)o1,,"male CD-1 mouse, plasma","intraperitoneal, 30 mg/kg",bioavailability,116%
C[C@H]1COC2=C1C(=O)C(=O)c1c2ccc2c1CCCC2(C)C,,water,"24 h, 25 °C",thermodynamic solubility,26.2 µg/mL
Cn1nc2c(=O)n(C3CC3)ncc2c1[C@](O)(c1ccc(C(F)(F)F)c(C#N)c1)C(F)(F)F,nephelometry,aqueous buffer,"30 min, pH 6.5",kinetic solubility,20 to 40 µM
COc1ccc(F)cc1C(=O)NCc1ccc(-c2nn([C@@H](C)C(F)(F)F)c(N)c2C(N)=O)cc1,,"male human, plasma","oral, 200 mg, tablet",bioavailability,86%
Cc1cc(C)cc(C(=O)c2c(C(C)C)c(=O)[nH]c(=O)n2Cc2ccnc(N)c2)c1,,"male Sprague-Dawley rat, plasma","intravenous, 20 mg/kg",Vd,184 L/kg
CN(C)C(=O)c1cc2cnc(Nc3ccc(-c4ccc5c(=O)cc(N6CCOCC6)oc5c4)cc3)nc2n1C1CCCC1,,"BALB/c mouse, plasma","oral, 20 mg/kg",bioavailability,10.5%
CC/C(=C(\c1ccc(O)cc1)c1ccc(OCCNC)cc1)c1ccccc1,,"female C57BL/6 mouse, plasma","oral, 1 mg/kg, single dose",Tmax,2 h
Cc1c(C(=O)O)ccc2c3n(nc12)[C@@H]1[C@H](C3)N(CC2CC2)[C@@]2(C(=O)Nc3cc(Cl)ccc32)[C@H]1c1cccc(Cl)c1F,,"female minipig, plasma","oral, 2 mg/kg",AUC(0-inf),13.4 µM·h
COc1cccc(-c2n[nH]c(SCc3ccccn3)n2)c1OC,,"male Sprague-Dawley rat, plasma","oral, 30 mg/kg, 1 h, single dose",concentration,36600 ng/mL
CCOC(=O)[C@@]12C[C@@H]1[C@@H](n1ccc3c(NC)nc(C#Cc4ccc(Cl)s4)nc31)[C@H](O)[C@@H]2O,,"male Sprague-Dawley rat, plasma","oral, 1 mg/kg, 30 min",concentration,8.88 ng/mL
CCN1CCN(Cc2ccc(NC(=O)c3ccc(C)c(NC(=O)c4cncc(-c5cccs5)c4)c3)cc2C(F)(F)F)CC1,,"mouse, plasma","intraperitoneal, 15 mg/kg, single dose",Tmax,1 h
CCn1ccc2c([C@](O)(c3ccc(C(F)(F)F)nc3)C3CC3)n(C)nc2c1=O,nephelometry,aqueous buffer,"30 min, pH 6.5",kinetic solubility,80 to 160 µM
OCc1ccc(-c2nn(Cc3ccccc3)c3ccccc23)o1,,"male CD-1 mouse, plasma","intraperitoneal, 30 mg/kg",bioavailability,52%
Cc1ccc2c(c1)nc(/C=C/c1cccc3cccnc13)n2-c1ccccc1,metabolic stability,"rat, liver microsomes","1.5 µM, 10 min",compound remaining,66.9%
COc1ccc(N/N=C/c2ccc(-c3ccc(/C=N/Nc4ccc(OC)cc4)cc3)cc2)cc1,haemolysis,mouse,"62.5 µg/mL, 1 h",haemolysis,< 30%
N#C[C@@]1(c2ccc3c(N)ncnn23)O[C@H](CO)[C@@H](O)[C@H]1O,,"dog, plasma",,fraction unbound,0.923
Cc1ccc2c(c1)nc(CCc1cccc3cccnc13)n2-c1ccccc1,metabolic stability,"rat, liver microsomes","1.5 µM, 15 min",compound remaining,0.15%
